# Experimental data gathered from unrelated publications.
# Each numbered part is a random draw from the data of one study; scales do not carry over between parts. Substitutions count along the parent as printed.
# Chain of UniProt Q8NFD2 (whole entry, looked up): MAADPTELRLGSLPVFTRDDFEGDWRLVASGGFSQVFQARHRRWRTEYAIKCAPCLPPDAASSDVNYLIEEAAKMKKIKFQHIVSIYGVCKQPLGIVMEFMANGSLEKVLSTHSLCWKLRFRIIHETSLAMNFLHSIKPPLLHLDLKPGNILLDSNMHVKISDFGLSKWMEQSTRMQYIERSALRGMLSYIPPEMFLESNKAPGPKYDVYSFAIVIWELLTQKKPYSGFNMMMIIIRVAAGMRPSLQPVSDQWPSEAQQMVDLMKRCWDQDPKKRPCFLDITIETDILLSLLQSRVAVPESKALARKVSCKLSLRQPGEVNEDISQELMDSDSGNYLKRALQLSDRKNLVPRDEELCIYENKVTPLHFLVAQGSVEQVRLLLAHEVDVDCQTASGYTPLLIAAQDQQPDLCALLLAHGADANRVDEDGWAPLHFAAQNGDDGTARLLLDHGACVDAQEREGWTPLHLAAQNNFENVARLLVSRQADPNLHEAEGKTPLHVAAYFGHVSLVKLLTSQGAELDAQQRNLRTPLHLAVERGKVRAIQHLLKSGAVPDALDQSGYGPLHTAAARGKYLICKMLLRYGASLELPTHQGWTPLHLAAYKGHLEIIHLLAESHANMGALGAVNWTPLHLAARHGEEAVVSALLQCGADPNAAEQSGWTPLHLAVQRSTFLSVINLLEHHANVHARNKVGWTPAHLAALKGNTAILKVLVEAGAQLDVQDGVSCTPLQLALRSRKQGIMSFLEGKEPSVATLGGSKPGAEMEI
# Chain of UniProt Q13188 (whole entry, looked up): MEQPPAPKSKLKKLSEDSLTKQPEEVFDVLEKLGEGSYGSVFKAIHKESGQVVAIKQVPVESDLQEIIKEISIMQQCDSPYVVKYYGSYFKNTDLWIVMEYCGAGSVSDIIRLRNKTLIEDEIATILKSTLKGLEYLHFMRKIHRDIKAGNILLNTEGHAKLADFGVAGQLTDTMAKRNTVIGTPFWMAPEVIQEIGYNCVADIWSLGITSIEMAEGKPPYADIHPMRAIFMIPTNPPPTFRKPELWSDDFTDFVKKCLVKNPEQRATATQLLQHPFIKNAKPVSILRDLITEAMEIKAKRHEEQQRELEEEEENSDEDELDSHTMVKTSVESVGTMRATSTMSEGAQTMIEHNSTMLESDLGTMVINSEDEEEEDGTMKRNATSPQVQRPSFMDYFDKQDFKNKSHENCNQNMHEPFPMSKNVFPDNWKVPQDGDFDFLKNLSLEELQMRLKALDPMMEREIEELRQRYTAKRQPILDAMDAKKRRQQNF
# Chain of UniProt Q8NG66 (whole entry, looked up): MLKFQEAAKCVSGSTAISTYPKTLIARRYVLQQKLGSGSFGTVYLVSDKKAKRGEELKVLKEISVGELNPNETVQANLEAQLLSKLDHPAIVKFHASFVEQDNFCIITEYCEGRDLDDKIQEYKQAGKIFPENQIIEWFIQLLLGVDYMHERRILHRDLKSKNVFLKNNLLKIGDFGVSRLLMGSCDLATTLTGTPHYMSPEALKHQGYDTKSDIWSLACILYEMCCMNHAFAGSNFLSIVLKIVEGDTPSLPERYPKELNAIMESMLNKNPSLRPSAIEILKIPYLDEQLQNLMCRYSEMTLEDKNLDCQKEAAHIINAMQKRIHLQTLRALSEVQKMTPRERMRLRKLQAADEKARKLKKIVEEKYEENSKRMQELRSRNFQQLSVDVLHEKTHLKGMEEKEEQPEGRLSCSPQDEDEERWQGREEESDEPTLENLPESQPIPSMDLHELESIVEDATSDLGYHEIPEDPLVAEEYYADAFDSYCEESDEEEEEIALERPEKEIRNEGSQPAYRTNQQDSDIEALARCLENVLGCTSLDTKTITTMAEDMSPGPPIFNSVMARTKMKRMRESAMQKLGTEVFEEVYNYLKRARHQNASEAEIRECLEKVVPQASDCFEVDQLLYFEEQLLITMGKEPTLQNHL
# Chain of UniProt Q9H4B4 (whole entry, looked up): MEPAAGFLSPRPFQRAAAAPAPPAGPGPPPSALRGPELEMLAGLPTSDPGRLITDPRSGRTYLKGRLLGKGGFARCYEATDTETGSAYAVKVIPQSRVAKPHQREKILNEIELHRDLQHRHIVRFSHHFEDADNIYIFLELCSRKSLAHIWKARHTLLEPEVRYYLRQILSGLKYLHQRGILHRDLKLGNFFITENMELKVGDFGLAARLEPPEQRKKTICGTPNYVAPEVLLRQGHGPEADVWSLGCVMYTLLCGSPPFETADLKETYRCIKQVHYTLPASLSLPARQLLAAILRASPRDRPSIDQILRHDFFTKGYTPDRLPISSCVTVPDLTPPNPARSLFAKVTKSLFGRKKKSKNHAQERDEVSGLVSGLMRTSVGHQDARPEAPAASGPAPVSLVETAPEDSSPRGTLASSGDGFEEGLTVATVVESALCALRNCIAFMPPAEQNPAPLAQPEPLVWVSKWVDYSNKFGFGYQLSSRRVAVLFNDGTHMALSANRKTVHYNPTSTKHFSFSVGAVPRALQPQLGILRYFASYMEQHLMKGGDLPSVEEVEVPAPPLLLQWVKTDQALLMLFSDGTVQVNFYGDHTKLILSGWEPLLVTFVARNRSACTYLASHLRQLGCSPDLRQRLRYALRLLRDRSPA
# Chain of UniProt Q8NI60 (whole entry, looked up): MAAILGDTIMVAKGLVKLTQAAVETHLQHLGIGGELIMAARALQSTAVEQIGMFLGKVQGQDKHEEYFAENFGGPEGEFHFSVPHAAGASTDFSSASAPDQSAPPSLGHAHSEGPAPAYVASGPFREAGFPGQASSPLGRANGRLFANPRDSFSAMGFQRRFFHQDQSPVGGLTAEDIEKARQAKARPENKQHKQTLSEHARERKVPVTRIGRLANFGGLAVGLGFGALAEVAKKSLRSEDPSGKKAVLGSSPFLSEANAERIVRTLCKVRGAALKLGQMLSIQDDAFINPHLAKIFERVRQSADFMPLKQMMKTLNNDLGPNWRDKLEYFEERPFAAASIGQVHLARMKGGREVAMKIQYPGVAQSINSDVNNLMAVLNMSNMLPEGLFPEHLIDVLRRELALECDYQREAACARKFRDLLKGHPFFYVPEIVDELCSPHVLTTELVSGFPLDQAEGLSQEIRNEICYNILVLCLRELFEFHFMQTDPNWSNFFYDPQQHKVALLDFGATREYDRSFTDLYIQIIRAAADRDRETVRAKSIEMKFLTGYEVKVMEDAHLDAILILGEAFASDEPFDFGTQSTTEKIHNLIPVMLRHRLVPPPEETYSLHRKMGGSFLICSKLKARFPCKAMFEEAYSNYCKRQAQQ
# Chain of UniProt Q8TDR2 (whole entry, looked up): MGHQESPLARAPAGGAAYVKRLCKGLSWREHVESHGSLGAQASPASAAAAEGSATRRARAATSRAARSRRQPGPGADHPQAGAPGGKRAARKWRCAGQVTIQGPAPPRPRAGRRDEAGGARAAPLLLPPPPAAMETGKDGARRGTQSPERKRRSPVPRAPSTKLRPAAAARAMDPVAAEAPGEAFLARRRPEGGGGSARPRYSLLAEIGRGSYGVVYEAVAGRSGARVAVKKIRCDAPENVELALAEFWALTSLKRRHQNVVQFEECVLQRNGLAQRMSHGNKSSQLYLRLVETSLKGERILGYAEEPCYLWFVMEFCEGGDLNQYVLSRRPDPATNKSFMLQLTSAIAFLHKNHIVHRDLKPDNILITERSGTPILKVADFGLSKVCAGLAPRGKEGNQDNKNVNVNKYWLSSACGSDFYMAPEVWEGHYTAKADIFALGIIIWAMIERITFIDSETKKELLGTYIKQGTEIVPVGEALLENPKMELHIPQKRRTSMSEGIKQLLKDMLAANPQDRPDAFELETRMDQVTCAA
# Chain of UniProt P21127 (whole entry, looked up): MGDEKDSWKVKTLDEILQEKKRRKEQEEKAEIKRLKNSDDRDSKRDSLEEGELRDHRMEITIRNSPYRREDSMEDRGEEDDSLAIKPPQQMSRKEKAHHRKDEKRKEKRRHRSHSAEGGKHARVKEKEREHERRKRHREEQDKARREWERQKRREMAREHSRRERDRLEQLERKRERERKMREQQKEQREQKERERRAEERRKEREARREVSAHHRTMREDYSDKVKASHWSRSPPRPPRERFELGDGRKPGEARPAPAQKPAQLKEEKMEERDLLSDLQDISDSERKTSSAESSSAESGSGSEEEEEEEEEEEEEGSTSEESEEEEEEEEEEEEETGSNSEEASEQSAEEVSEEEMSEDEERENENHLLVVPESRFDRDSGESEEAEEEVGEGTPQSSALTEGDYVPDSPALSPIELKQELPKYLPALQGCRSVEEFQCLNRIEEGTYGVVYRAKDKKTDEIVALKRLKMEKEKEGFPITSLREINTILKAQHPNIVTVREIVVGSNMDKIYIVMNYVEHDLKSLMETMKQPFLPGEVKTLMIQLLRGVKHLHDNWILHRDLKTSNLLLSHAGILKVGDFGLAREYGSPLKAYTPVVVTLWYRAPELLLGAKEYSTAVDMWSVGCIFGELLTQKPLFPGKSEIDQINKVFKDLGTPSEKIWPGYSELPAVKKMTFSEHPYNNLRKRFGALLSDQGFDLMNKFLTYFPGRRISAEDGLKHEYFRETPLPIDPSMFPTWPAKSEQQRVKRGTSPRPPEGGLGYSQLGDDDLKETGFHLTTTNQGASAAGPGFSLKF
# Chain of UniProt Q9H3Y6 (whole entry, looked up): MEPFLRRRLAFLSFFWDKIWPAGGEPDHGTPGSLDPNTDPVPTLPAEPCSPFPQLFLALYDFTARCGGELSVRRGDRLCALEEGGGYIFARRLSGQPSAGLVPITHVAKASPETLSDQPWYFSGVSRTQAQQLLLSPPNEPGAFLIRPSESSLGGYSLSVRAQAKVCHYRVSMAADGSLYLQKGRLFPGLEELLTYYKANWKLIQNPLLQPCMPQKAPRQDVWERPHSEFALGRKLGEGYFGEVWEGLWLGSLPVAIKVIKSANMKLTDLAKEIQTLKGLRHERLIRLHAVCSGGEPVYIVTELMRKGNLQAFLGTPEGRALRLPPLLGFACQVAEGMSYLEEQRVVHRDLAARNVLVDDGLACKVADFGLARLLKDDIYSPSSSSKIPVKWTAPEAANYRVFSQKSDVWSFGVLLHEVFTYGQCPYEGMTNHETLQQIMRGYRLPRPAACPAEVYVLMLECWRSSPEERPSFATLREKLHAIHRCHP

# Study 1 — target: CCNA1, cyclin fold, Cln2 fusion (human); method: yeast growth competition, sequencing; matrix: yeast; setting: strong parent motif; reference: not given; reading: higher = stronger binding; parent: viral docking peptide; YKVKRRLVFGADD
Change,normalised enrichment score
YKVKRRLVFKADD [G10K],1.19
YKVKRQLVFGADD [R6Q],1.12
YKVKHRLVFGADD [R5H],-0.0942
YKKKRRLVFGADD [V3K],0.0215
YKYKRRLVFGADD [V3Y],0.656
YKVKRRAVFGADD [L7A],0.237
YKVKRRLVFMADD [G10M],1.35
YLVKRRLVFGADD [K2L],1.34

# Study 2 — observed: peptide-MHC binding; form: peptide; concentration: concentration not given
# Target: HLA class I histocompatibility antigen, C alpha chain, allele C*04:01 (Homo sapiens, UniProt P10321)
Sequence,binding
ALFDRPAFK,inactive
FQMGGIGPM,inactive
YTDKIAMSY,inactive
YTGAMTSKF,inactive
MVFGRFSFA,inactive
SQAAFGLPI,inactive
KYFDDVTAF,inactive
YFIFVRAIL,inactive

# Study 3 — observed: cell-free assay; method: competition with immobilised ligand; concentration: 1 µM
# SMILES: Cn1cncc1[C@](O)(COc1ccc(C#N)cc1-c1ccc(OC(F)(F)F)cc1)c1ccc(C#N)cc1
target,remaining binding [%]
"Serine/threonine-protein kinase Nek11 (NEK11, Homo sapiens, UniProt Q8NG66)",100
"Mitogen-activated protein kinase kinase kinase 12 (MAP3K12, Homo sapiens, UniProt Q12852)",100
"Cyclin-dependent kinase 11B (CDK11B, Homo sapiens, UniProt P21127)",100
"Tyrosine-protein kinase ABL1, non-phosphorylated (ABL1, Homo sapiens, UniProt P00519, T315I)",100
"Atypical kinase COQ8A, mitochondrial (COQ8A, Homo sapiens, UniProt Q8NI60)",92
"Serine/threonine-protein kinase 35 (STK35, Homo sapiens, UniProt Q8TDR2)",100
"Serine/threonine-protein kinase Chk2 (CHEK2, Homo sapiens, UniProt O96017)",100
"Tyrosine-protein kinase Yes (YES1, Homo sapiens, UniProt P07947)",94
"Mitogen-activated protein kinase kinase kinase 5 (MAP3K5, Homo sapiens, UniProt Q99683)",77
"Ankyrin repeat and protein kinase domain-containing protein 1 (ANKK1, Homo sapiens, UniProt Q8NFD2)",100
"Serine/threonine-protein kinase 3 (STK3, Homo sapiens, UniProt Q13188)",77
"Dual specificity protein kinase CLK4 (CLK4, Homo sapiens, UniProt Q9HAZ1)",94
"Phosphatidylinositol 4-phosphate 5-kinase type-1 gamma (PIP5K1C, Homo sapiens, UniProt O60331)",93
"Serine/threonine-protein kinase PLK3 (PLK3, Homo sapiens, UniProt Q9H4B4)",89
"Mast/stem cell growth factor receptor Kit (KIT, Homo sapiens, UniProt P10721)",100
"Phosphatidylinositol 4,5-bisphosphate 3-kinase catalytic subunit alpha isoform (PIK3CA, Homo sapiens, UniProt P42336, I800L)",85
"Tyrosine-protein kinase Srms (SRMS, Homo sapiens, UniProt Q9H3Y6)",79
"Phosphatidylinositol 5-phosphate 4-kinase type-2 gamma (PIP4K2C, Homo sapiens, UniProt Q8TBX8)",87

# Further values, each from its own experiment
SMILES,tested on,test,conditions,scale,endpoint,value
O=C1NC(=O)c2c1c1c3ccccc3n3c1c1c2c2ccccc2n1[C@H]1CC[C@@H]3O1,"Dual specificity tyrosine-phosphorylation-regulated kinase 1A (DYRK1A, Homo sapiens, UniProt Q13627)","enzyme activity, inhibitor",0.5 µM,reference: control,remaining activity,8.74%
Br.COc1ccc2c(c1)[C@]13CCCC[C@@H]1[C@H](C2)N(C)CC3,Sarcocystis neurona,parasite growth,"10 µM, secondary screen",,inhibition,-34.5%

# Some of these lines once more (study 3):
target,remaining binding [%]
"Mitogen-activated protein kinase kinase kinase 5 (MAP3K5, Homo sapiens, UniProt Q99683)",77
"Phosphatidylinositol 4,5-bisphosphate 3-kinase catalytic subunit alpha isoform (PIK3CA, Homo sapiens, UniProt P42336, I800L)",85
"Phosphatidylinositol 4-phosphate 5-kinase type-1 gamma (PIP5K1C, Homo sapiens, UniProt O60331)",93
"Tyrosine-protein kinase ABL1, non-phosphorylated (ABL1, Homo sapiens, UniProt P00519, T315I)",100
"Serine/threonine-protein kinase 3 (STK3, Homo sapiens, UniProt Q13188)",77
